# Measured values of several laboratories.
# Each line is one published result; not all experiments were run side by side. Several values in a cell are separate wells, animals, samples, runs or records. ± gives the spread as reported. Ends that are not written are not given here. * marks the point of attachment.
Molecule,target or system,assay,system,setting,how to read,measurement,value
C[C@H]1[C@H]2N(C(=O)CN(C)N2C(=O)NCc2ccccc2)[C@@H](Cc2ccc(OP(=O)(O)O)cc2)C(=O)N1Cc1cccc2cccnc12,,FibroScan,"human, advanced primary biliary cholangitis","concentration not given, 12 weeks",reference: baseline,patients with decreased liver stiffness,20%
SIYNFEKL,,"flow cytometry, measured: CD44hi CD8+ T cells","peptide, OT-I CD8+ T cells, mouse","dose not given, primed 5 days, TGF-β1 from day 2 onward, added: 20 ng/mL TGF-β1",,IL-2+ TNF-α+ cells,4.47%
Cc1cc(C)c(/C=C2\C(=O)Nc3ccccc32)[nH]1,,MRI,human,"concentration not given, 3.1 months",,tumour area,1.46 cm²
CCOC(=O)c1sc(NN=C2c3ccccc3-c3nc4cc(F)ccc4nc32)nc1C,,,mice with STZ-induced diabetes,"oral, 25 mg/kg, 288 h, day 12",,blood glucose,355 ± 18.4 mg/dL
CCCN(O)N=Nc1ccc(S(=O)(=O)Nc2onc(C)c2C)cc1,,paw oedema,"rat, carrageenan oedema","oral, 100 mg/kg, 2 h after carrageenan",reference: vehicle,inhibition,24%
FSRALRTK,,ELISA or Luminex,"peptide, mouse peritoneal macrophages, C57BL/6 mouse","optimal dose within 0.1 pM to 100 nM, 1 h pretreatment, 15 h stimulation, added: LPS 100 ng/mL + IFN-γ 20 ng/mL",reference: LPS/IFN-γ stimulated control,inhibition of RANTES release,0%
COc1ccnc(C[S+]([O-])c2nc3ccc(OC(F)F)cc3[nH]2)c1OC (stereo not shown),,,human poor metabolizer,"40 mg/day, day 6, 5 days dosing",,intragastric pH,5.25 ± 0.35
O=c1c(O)c(-c2ccc(O)c(O)c2)oc2cc(O)ccc12,,,"Ins2 Akita diabetic mouse, plantar foot skin","oral, diet, 0.05% in diet",,epidermal nerve fiber density,no effect
c1ccc2c(c1)ccc1c3c(ccc12)CCC3,,adrenal haemorrhage prevention,rat,"oral, added: 7,12-DMBA 5 mg i.v.",,minimal protective dose,2 mg
insulin lispro,,euglycemic clamp,healthy humans,"subcutaneous, 10 units, 8 h",,total glucose infused,2300 mg/kg
Cc1cccc(N(O)N=Nc2ccc(S(=O)(=O)Nc3cc(C)on3)cc2)c1,,paw oedema,"rat, carrageenan oedema","oral, 100 mg/kg, 2 h after carrageenan",reference: vehicle,inhibition,45.1%
CC(=O)c1sc(NN=C2c3ccccc3-c3nc4cc(F)ccc4nc32)nc1C,,,mice with STZ-induced diabetes,"oral, 25 mg/kg, 216 h, day 9",,blood glucose,202 ± 3.6 mg/dL
CS/C(S)=N/CCCC[S+](C)[O-] (racemic),,measured: Arnt,"rat, mammary gland","oral gavage, 200 mg/kg, 4 days daily",reference: vehicle,mRNA level,11.1 fold
COCCc1ccc(OCC(O)CNC(C)C)cc1 (stereo not shown),,,"rats, adrenaline arrhythmia, plasma","intragastric, 2.57 g/kg daily, 14 days",,malondialdehyde level,3.66 ± 0.28 nmol/L
Cc1cc(C(=O)/C(=C\c2ccc(Cl)cc2)c2ccc(Cl)cc2)c(C(=O)N2CCCCC2)c(=O)[nH]1,,"cell proliferation, MTT","35404 melanoma brain metastasis, human patient-derived","72 h, tested up to 10 µM",,IC50,> 10 µM
Cc1c(C)c2c(c(C)c1O)CCC(C)(C(=O)NN=C1C(=O)N(C)c3cc(Cl)ccc31)O2 (stereo not shown),,seizure protection,male CF-1 mice,"intraperitoneal, 4 h, added: maximal electroshock",,minimal effective dose,30 mg/kg
Cc1noc(NS(=O)(=O)c2ccc(N=NN(C)O)cc2)c1C,,paw oedema,"rat, carrageenan oedema","oral, 100 mg/kg, 2 h after carrageenan",reference: vehicle,inhibition,30.3%
CCCCCCC(C=O)=Cc1ccccc1,cysteine peptide Ac-RFAACAA-COOH,"peptide depletion, DPRA RapidFire-MS/MS",,"24 h, pH 7.5, room temperature, added: 5.0 µM cysteine peptide",,IC50,inactive
O=C1N=C(NN=C2C(=O)Nc3ccccc32)SC1=C1c2ccccc2-c2nc3cc(F)ccc3nc21,,,mice with STZ-induced diabetes,"oral, 25 mg/kg, 216 h, day 9",,blood glucose,295 ± 80.3 mg/dL
COc1c(C)c(C)c2c(c1C)CCC(C)(C(=O)NN=C1C(=O)Nc3ccc(F)cc31)O2 (stereo not shown),,seizure protection,male CF-1 mice,"intraperitoneal, 0.5 h, added: maximal electroshock",,minimal effective dose,100 mg/kg
CC[C@H](C)[C@@H]1NC(=O)[C@H](CCCNC(=N)N)NC(=O)[C@H](CC(=O)O)NC(=O)[C@H](CC(C)C)NC(=O)[C@H](CCCCN)NC(=O)[C@H](CC(C)C)NC(=O)CNC(=O)[C@H](Cc2ccccc2)NC(=O)[C@@H](NC(=O)CNC(=O)[C@H](CCCCN)NC(=O)[C@H](CO)NC(=O)[C@H](CC(C)C)NC(=O)CNC(=O)[C@H](CCCCN)NC(=O)[C@H](CCCCN)NC(=O)[C@H](CC(N)=O)NC(=O)[C@H](C)NC(=O)CNC(=O)[C@H](CCCCN)NC(=O)[C@H](Cc2ccc(O)cc2)NC(=O)[C@H](CCCCN)NC(=O)[C@H](CCCNC(=N)N)NC(=O)[C@H](C)NC(=O)[C@H](CC(N)=O)NC(=O)[C@@H]2CCCN2C(=O)[C@H](Cc2c[nH]cn2)NC(=O)[C@H](CCC(=O)O)NC(=O)[C@H](CCC(N)=O)NC(=O)CNC(=O)[C@@H]2CCCN2)CSSC[C@@H](C(=O)O)NC(=O)CNC(=O)[C@H](CC(C)C)NC(=O)CNC(=O)[C@H](CO)NC(=O)[C@H](CCSC)NC(=O)[C@H](CO)NC(=O)CNC1=O,,annualized growth velocity change,human patients with achondroplasia,"day 183, Emax model vs mean Cmax, Hill 1",reference: baseline,Emax,2.8 cm/year
SIIVFEKL,,"flow cytometry, measured: CD44hi CD8+ T cells","peptide, OT-I CD8+ T cells, mouse","dose not given, primed 5 days, TGF-β1 from day 2 onward, added: 20 ng/mL TGF-β1",,IL-2+ TNF-α+ cells,5.22%
insulin glargine,,euglycaemic glucose clamp,type 2 diabetic patients,"subcutaneous, 0.4 U/kg, 0 to 32 h, after 1 week bedtime dosing",,glucose infusion rate AUC,1540 ± 688 mg/kg
Cc1c(C)c2c(c(C)c1OCc1ccccc1)CCC(C)(C(=O)NN=C1C(=O)N(C)c3ccc(Cl)cc31)O2 (stereo not shown),,seizure protection,male CF-1 mice,"intraperitoneal, 4 h, added: maximal electroshock",,minimal effective dose,100 mg/kg
C[C@H]1C[C@H]2CSC(N)=N[C@@]2(c2nc(NC(=O)c3ccc(OC(F)F)cn3)cs2)CO1,,measured: CSF Aβ1–38,healthy adults,"275 mg once daily, 14 days, day 15",reference: placebo-adjusted baseline,change from baseline,-87.4%
Cc1c(C)c2c(c(C)c1OCc1ccccc1)CCC(C)(C(=O)NN=C1C(=O)Nc3ccc(Cl)cc31)O2 (stereo not shown),,seizure protection,male CF-1 mice,"intraperitoneal, 0.5 h, added: maximal electroshock",,minimal effective dose,100 mg/kg
CC(C)C[C@H](NC(=O)[C@H](CO)NC(=O)[C@H](CCCNC(=N)N)NC(=O)[C@H](CC(=O)O)NC(=O)[C@H](CCC(=O)O)NC(=O)[C@H](C)NC(=O)[C@@H]1CCCN1C(=O)[C@H](C)NC(=O)[C@H](CCC(=O)O)NC(=O)[C@@H]1CCCN1C(=O)[C@@H]1CCCN1)C(N)=O,,HPLC-EC,"rat F344, normal, substantia nigra","intranasal, 300 µg 5 days per week, 3 weeks",,HVA level,81 ± 7 ng/g
O=C(O)Cc1ccccc1Nc1c(Cl)cccc1Cl,,paw edema,rat carrageenan paw edema,"oral, 12.5 mg/kg, 2 h",reference: vehicle,inhibition,52%
PHGYFLPGQFAFS,,cytokine expression suppression,"peptide, mouse peritoneal macrophages, C57BL/6 mice","1 h pretreatment, added: LPS/IFN-γ 15 h",,optimal dose,100 pM
Cc1c(C)c2c(c(C)c1OCc1ccccc1)CCC(C)(C(=O)NN=C1C(=O)N(C)c3ccccc31)O2 (stereo not shown),,seizure protection,male CF-1 mice,"intraperitoneal, 0.5 h, added: maximal electroshock",,minimal effective dose,100 mg/kg
COc1ccc2c(c1)CC[C@H](CN(C)CC(=O)O)[C@@H]2c1ccccc1,,,"rat, prefrontal cortex microdialysate","oral gavage, 5 mg/kg/day, 2 weeks, PCP-treated rats",,basal dopamine level,1.71 ± 1.31 pg/10 µL
Palmitoyl-PCSTSSMA (N-palmitoyl; Palmitoyl = CCCCCCCCCCCCCCCC(=O)*),,,"SCID mouse, subcutaneous AsPC-1 xenograft, tumour tissue","intratumoral, 500 µg/mouse/day, 3 weeks",,Ki67-positive nuclei,11.2 ± 2.25%
OC[C@H]1O[C@@H](c2ccc(Cl)c(Cc3ccc(O[C@H]4CCOC4)cc3)c2)[C@H](O)[C@@H](O)[C@@H]1O,,,"male Wistar rat, MCAO","oral, 2 mg/kg once daily, 7 days before, read 48 h after MCAO, added: liraglutide 1 mg/kg s.c. + metformin 200 mg/kg",reference: brain volume,infarct volume,4.91%
CCOC(=O)c1ccccc1C(=O)OCC,cysteine peptide Ac-RFAACAA-COOH,DPRA RapidFire-MS/MS,,"24 h, pH 7.5, added: 5.0 µM cysteine peptide",,peptide depletion,inactive
insulin aspart,,euglycaemic glucose clamp,Japanese type 1 diabetes patients,"subcutaneous, 0.2 U/kg",,onset of action,25.5 min
CCc1cc(-c2noc(-c3cc(OC)nc(C4CCCC4)c3)n2)cc(C)c1OC[C@@H](O)CO,,lymphocyte count reduction,Wistar rats,"oral, 0.1 to 10 mg/kg",,minimal effective plasma concentration,60 ng/mL and ~60 ng/mL
Cc1ccc2ccc3cc4ccccc4cc3c2c1,,adrenal haemorrhage prevention,rat,"oral, added: 7,12-DMBA 5 mg i.v.",,minimal protective dose,0.5 mg
CC(=O)N[C@@H](CCCCN)C(=O)N[C@@H](CC(C)C)C(=O)N[C@@H](CC(=O)O)C(=O)N[C@@H](CC(C)C)C(=O)N[C@@H](CCCCN)C(=O)N[C@@H](CC(C)C)C(=O)N[C@@H](CC(=O)O)C(=O)N[C@@H](CC(C)C)C(=O)N[C@@H](CCCCN)C(=O)N[C@@H](CC(C)C)C(=O)N[C@@H](CC(=O)O)C(=O)N[C@@H](CC(C)C)C(N)=O,,TUNEL,"Sprague Dawley rat, knee OA model, cartilage","intra-articular, dose not given, 6 weeks",,apoptotic chondrocytes,9%
CCC1SC(NN=C2c3ccccc3-c3nc4cc(F)ccc4nc32)=NC1=O (stereo not shown),,,mice with STZ-induced diabetes,"oral, 25 mg/kg, 144 h, day 6",,blood glucose,254 ± 9.7 mg/dL
COc1c(C)c(C)c2c(c1C)CCC(C)(C(=O)NN=C1C(=O)Nc3ccc(Br)cc31)O2 (stereo not shown),,seizure protection,male CF-1 mice,"intraperitoneal, 0.5 h, added: maximal electroshock",,minimal effective dose,> 300 mg/kg
CC(=NN=c1[nH]c(C)c(N=Nc2ccc(Br)cc2)s1)c1c(O)c2ccccc2oc1=O,,,mice with Ehrlich ascites carcinoma,"ip, 2 mg/kg twice weekly, 2 weeks",,body weight change,8.5%
Cc1c(C)c2c(c(C)c1OCc1ccccc1)CCC(C)(C(=O)NN=C1C(=O)Nc3ccc(Br)cc31)O2 (stereo not shown),,seizure protection,male CF-1 mice,"intraperitoneal, 0.5 h, added: maximal electroshock",,minimal effective dose,> 300 mg/kg
CCC(=O)N1CCC(NC(=O)Nc2ccc(OC(F)(F)F)cc2)CC1,,von Frey,"Sprague-Dawley rat, streptozotocin diabetic","intraperitoneal, 3 mg/kg, 90 min",,mechanical withdrawal threshold,79.4 ± 2.7 g
Polymyxin B,,,human whole blood,"250 ng/mL, 4 h, 37 °C, added: E. coli LPS 0.5 ng/mL",reference: LPS without compound,IL-1β release,18.4 ± 11.2%
CC(=O)c1sc(N=C2c3ccccc3-c3nc4cc(F)ccc4nc32)nc1C,,,mice with STZ-induced diabetes,"oral, 25 mg/kg, 144 h, day 6",,blood glucose,567 ± 15.4 mg/dL
NCCCC[C@@H]1NC(=O)[C@@H](Cc2c[nH]c3ccccc23)NC(=O)[C@H](c2ccccc2)NC(=O)[C@@H]2C[C@@H](OC(=O)NCCN)CN2C(=O)[C@H](Cc2ccccc2)NC(=O)[C@H](Cc2ccc(OCc3ccccc3)cc2)NC1=O,,GHRH-stimulated GH secretion,healthy human volunteers,"subcutaneous, 2.5 µg, added: GHRH 1 µg/kg",reference: pre-dose baseline,GH AUC(0-2h) change,23.8%
Cc1c(C)c2c(c(C)c1O)CCC(C)(C(=O)NN=C1C(=O)Nc3ccc(Br)cc31)O2 (stereo not shown),,seizure protection,male CF-1 mice,"intraperitoneal, 4 h, added: maximal electroshock",,minimal effective dose,> 300 mg/kg
TLQPPASSRRRAFHHALPPAR,,,"peptide, rat stomach fundus strips",3 µM,reference: TLQP-21,contractile activity,95 ± 4%
COc1cc2c(cc1OC)C(=O)C(CC1CCN(Cc3ccccc3)CC1)C2 (stereo not shown),,Y-maze,"male Swiss mice, scopolamine model","oral, 5 mg/kg, added: scopolamine 1.5 mg/kg i.p.",reference: scopolamine alone,spontaneous alternation,increased

# Some of these lines once more:
Molecule,target or system,assay,system,setting,how to read,measurement,value
Cc1c(C)c2c(c(C)c1OCc1ccccc1)CCC(C)(C(=O)NN=C1C(=O)Nc3ccc(Cl)cc31)O2 (stereo not shown),,seizure protection,male CF-1 mice,"intraperitoneal, 0.5 h, added: maximal electroshock",,minimal effective dose,100 mg/kg
CC(C)C[C@H](NC(=O)[C@H](CO)NC(=O)[C@H](CCCNC(=N)N)NC(=O)[C@H](CC(=O)O)NC(=O)[C@H](CCC(=O)O)NC(=O)[C@H](C)NC(=O)[C@@H]1CCCN1C(=O)[C@H](C)NC(=O)[C@H](CCC(=O)O)NC(=O)[C@@H]1CCCN1C(=O)[C@@H]1CCCN1)C(N)=O,,HPLC-EC,"rat F344, normal, substantia nigra","intranasal, 300 µg 5 days per week, 3 weeks",,HVA level,81 ± 7 ng/g
O=C(O)Cc1ccccc1Nc1c(Cl)cccc1Cl,,paw edema,rat carrageenan paw edema,"oral, 12.5 mg/kg, 2 h",reference: vehicle,inhibition,52%
PHGYFLPGQFAFS,,cytokine expression suppression,"peptide, mouse peritoneal macrophages, C57BL/6 mice","1 h pretreatment, added: LPS/IFN-γ 15 h",,optimal dose,100 pM
Cc1c(C)c2c(c(C)c1OCc1ccccc1)CCC(C)(C(=O)NN=C1C(=O)N(C)c3ccccc31)O2 (stereo not shown),,seizure protection,male CF-1 mice,"intraperitoneal, 0.5 h, added: maximal electroshock",,minimal effective dose,100 mg/kg
COc1ccc2c(c1)CC[C@H](CN(C)CC(=O)O)[C@@H]2c1ccccc1,,,"rat, prefrontal cortex microdialysate","oral gavage, 5 mg/kg/day, 2 weeks, PCP-treated rats",,basal dopamine level,1.71 ± 1.31 pg/10 µL
Palmitoyl-PCSTSSMA (N-palmitoyl; Palmitoyl = CCCCCCCCCCCCCCCC(=O)*),,,"SCID mouse, subcutaneous AsPC-1 xenograft, tumour tissue","intratumoral, 500 µg/mouse/day, 3 weeks",,Ki67-positive nuclei,11.2 ± 2.25%
